# Values quoted from earlier work, collected from citations in different studies.
# Values joined by “and” are separate records of one study, mostly repeats; a detail may differ. ± marks the error that the study gave.
# UniProt P9WPP7, sequence (whole entry, looked up): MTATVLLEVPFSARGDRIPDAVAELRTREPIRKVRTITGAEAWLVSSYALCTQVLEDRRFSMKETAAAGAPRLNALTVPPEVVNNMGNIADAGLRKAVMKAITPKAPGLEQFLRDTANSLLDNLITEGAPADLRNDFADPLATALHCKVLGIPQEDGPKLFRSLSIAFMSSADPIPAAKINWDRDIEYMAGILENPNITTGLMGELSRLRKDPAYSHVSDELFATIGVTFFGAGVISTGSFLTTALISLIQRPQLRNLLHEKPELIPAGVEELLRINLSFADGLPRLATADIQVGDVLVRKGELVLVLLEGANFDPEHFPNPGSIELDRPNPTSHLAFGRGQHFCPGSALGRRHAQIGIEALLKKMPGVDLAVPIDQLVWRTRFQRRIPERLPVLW
SMILES,target,test,conditions,measurement,value
c1cn(Cc2ccc(-c3ccc4c(c3)OCO4)cc2)cn1,"cyp121 (Mycobacterium tuberculosis, UniProt P9WPP7)",binding,,Kd,5 µM and 5.4 µM
CNC(=O)C1CC(n2c(-c3cncc4ccccc34)nc3cccc(C(=O)NC(C)c4ccc(C(F)(F)F)cc4)c32)C1 (stereo not shown),SARS-CoV-2 main protease,inhibitor,,Ki,0.046 µM
C[n+]1cn(C2OC(COP(=O)(O)OP(=O)(O)O)C(O)C2O)c2nc(N)[nH]c(=O)c21 (stereo not shown),vaccinia virus D10 MBP fusion,inhibitor,"concentration not given, single turnover",enzyme activity,inhibited
O=C(Oc1cccnc1)c1ccco1,"Replicase polyprotein 1ab, main protease (rep, Severe acute respiratory syndrome-related coronavirus, UniProt P0C6X7)",,,IC50,7.9 µM
COc1cccc2[nH]c(C(=O)N[C@@H](CC(C)C)C(=O)N[C@@H](C[C@@H]3CCNC3=O)C(=O)c3nc4ccccc4s3)cc12,SARS-CoV-2 main protease,reversible covalent inhibitor,,Ki,0.0176 µM
O=C(/C=C/c1ccc(O)c2oc(-c3ccc(O)c(O)c3)cc12)O[C@H](Cc1ccc(O)c(O)c1)C(=O)O,SARS-CoV spike S2,binding,,Kd,405 µM
CNC(=O)C1CC(n2c(-c3cncc4ccccc34)nc3cccc(C(=O)NC(C)c4ccccc4)c32)C1 (stereo not shown),SARS-CoV-2 main protease,inhibitor,,Ki,0.571 µM
Oc1cc(O)c2c(c1)OC(c1ccc(O)c(O)c1)C(O)C2c1c(O)cc(O)c2c1OC(c1ccc(O)c(O)c1)C(O)C2 (stereo not shown),"Replicase polyprotein 1ab, papain-like protease (rep, Severe acute respiratory syndrome coronavirus 2, UniProt P0DTD1)",enzyme activity,added: Z-RLRGG-AMC substrate,IC50,2.4 ± 0.3 µM
O=C(c1cc(=O)[nH]c(=O)[nH]1)N1CCC(c2cc(Cl)c(Cl)c(Cl)c2)CC1,"Replicase polyprotein 1ab, main protease (rep, Severe acute respiratory syndrome coronavirus 2, UniProt P0DTD1)",inhibitor,,IC50,0.29 µM
COc1c(O)cc2oc3cc(O)c(CC=C(C)C)c(O)c3c(=O)c2c1CC=C(C)C,Clostridium perfringens neuraminidase,"enzyme activity, inhibitor",,IC50,12.2 ± 1.2 µM

# A few entries again:
SMILES,target,test,conditions,measurement,value
O=C(Oc1cccnc1)c1ccco1,"Replicase polyprotein 1ab, main protease (rep, Severe acute respiratory syndrome-related coronavirus, UniProt P0C6X7)",,,IC50,7.9 µM
